Experimental data pooled from the literature.
Each line is one published result; not all experiments were run side by side. ± gives the spread as reported.
UniProt O95747, sequence (whole entry, looked up): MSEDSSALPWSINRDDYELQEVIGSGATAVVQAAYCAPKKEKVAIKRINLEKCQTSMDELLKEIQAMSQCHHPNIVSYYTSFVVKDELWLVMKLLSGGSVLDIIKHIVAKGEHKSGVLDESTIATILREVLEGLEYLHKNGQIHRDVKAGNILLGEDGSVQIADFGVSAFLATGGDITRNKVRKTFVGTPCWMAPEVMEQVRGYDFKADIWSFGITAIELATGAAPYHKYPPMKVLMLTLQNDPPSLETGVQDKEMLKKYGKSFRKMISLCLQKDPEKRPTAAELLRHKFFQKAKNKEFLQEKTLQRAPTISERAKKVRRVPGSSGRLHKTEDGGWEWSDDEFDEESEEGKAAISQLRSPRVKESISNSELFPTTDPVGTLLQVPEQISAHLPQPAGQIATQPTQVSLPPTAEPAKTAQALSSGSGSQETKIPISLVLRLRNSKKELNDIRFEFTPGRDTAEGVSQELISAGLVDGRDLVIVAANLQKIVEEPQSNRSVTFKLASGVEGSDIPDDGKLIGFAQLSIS
UniProt P48146, sequence (whole entry, looked up): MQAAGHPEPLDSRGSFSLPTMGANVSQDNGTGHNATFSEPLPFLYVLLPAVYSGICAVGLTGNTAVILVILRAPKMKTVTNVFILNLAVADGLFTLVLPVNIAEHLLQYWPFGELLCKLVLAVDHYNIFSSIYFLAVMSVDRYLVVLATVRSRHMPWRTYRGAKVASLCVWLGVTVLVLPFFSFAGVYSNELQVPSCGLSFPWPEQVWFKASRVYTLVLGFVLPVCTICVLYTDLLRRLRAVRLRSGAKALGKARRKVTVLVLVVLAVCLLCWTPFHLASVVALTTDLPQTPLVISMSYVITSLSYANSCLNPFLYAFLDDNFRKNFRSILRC
UniProt P12821, sequence (whole entry, looked up): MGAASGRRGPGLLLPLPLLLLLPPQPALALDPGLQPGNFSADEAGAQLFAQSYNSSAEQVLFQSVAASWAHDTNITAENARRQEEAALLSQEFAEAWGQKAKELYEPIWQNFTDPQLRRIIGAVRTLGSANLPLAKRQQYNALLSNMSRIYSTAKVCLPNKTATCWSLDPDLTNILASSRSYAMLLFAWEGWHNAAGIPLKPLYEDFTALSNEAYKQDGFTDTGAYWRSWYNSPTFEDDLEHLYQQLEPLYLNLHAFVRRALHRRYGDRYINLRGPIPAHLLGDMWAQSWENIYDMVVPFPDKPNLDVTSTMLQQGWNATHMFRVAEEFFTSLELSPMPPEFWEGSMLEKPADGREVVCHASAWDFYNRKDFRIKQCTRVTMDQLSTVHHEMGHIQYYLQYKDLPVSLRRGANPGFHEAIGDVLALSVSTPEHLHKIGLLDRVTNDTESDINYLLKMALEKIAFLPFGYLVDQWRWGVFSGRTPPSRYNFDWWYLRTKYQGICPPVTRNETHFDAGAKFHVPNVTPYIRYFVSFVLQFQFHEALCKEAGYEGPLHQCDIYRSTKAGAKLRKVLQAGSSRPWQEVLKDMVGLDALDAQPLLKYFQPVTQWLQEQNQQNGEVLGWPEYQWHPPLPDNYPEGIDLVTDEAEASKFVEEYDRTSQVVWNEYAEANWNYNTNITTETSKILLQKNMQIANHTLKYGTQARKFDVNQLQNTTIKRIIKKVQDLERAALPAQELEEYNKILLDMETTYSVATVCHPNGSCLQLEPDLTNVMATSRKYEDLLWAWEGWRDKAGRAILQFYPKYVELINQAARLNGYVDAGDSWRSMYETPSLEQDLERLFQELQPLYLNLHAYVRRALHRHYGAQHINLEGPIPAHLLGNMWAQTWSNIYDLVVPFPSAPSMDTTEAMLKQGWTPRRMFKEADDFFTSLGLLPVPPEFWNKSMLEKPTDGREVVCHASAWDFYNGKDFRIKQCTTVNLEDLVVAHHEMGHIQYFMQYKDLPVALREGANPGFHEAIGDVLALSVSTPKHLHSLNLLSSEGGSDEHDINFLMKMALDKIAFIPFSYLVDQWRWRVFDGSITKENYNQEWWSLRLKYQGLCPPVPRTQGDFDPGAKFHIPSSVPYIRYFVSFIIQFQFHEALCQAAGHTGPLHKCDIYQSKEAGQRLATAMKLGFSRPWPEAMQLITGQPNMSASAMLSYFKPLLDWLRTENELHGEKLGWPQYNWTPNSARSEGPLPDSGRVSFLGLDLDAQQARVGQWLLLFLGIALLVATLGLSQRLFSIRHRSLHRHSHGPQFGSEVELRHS
UniProt P42785, sequence (whole entry, looked up): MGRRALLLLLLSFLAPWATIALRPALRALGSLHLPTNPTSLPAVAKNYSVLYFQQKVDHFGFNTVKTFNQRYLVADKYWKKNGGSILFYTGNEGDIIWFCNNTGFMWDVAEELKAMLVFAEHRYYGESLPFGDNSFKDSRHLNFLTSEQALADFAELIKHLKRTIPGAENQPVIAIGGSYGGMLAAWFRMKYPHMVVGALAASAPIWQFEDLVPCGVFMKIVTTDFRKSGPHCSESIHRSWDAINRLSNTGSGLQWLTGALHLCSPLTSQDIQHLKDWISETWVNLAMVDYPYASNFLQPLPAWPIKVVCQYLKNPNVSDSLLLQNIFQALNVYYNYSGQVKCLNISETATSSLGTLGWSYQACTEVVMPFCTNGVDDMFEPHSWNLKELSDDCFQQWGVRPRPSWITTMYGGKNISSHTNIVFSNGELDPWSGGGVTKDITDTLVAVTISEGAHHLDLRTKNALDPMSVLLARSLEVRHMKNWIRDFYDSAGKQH
UniProt Q14416, sequence (whole entry, looked up): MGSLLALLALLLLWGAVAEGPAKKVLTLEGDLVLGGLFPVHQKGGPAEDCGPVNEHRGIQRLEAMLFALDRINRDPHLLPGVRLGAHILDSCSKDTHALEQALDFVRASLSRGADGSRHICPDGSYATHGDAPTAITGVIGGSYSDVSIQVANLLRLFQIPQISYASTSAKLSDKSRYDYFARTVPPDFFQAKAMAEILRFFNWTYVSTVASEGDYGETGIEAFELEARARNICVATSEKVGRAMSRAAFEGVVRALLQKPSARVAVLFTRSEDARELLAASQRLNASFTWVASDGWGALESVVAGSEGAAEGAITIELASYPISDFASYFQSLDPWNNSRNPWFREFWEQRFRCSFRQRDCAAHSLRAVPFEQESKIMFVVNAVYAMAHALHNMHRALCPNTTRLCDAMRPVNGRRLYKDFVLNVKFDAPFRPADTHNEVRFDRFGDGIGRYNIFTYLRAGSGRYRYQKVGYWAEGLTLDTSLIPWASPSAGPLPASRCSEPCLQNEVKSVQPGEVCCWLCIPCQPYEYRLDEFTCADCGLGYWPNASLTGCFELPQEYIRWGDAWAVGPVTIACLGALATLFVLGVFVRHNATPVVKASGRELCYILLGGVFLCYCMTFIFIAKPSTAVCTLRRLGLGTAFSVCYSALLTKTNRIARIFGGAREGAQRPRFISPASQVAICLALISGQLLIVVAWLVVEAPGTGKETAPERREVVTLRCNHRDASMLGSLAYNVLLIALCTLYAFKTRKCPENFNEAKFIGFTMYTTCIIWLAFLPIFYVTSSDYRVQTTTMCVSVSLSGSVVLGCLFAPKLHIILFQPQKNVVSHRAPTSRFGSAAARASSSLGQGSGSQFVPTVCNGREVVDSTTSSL
UniProt Q8NET8, sequence (whole entry, unmodified, looked up): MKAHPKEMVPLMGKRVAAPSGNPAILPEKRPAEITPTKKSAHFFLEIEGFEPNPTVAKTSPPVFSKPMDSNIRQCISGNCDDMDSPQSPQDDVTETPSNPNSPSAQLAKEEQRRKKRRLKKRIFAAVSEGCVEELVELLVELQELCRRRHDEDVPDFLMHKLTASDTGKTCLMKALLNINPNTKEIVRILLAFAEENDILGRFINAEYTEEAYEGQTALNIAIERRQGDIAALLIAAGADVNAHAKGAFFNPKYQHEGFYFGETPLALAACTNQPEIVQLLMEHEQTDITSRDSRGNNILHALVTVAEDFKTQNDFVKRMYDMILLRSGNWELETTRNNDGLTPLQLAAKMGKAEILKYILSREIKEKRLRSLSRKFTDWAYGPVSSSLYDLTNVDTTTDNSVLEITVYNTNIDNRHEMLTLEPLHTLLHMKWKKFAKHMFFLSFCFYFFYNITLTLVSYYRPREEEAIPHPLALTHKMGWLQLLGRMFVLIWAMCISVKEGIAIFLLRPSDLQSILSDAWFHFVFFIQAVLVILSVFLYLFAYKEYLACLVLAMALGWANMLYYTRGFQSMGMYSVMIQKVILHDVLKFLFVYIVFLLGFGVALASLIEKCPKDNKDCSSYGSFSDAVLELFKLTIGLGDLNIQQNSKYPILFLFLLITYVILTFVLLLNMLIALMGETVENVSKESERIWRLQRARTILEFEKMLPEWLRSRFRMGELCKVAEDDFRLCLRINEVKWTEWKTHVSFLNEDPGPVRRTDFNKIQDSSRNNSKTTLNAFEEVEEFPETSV

With `CNC1(c2ccccc2Cl)CCCCC1=O` (racemic) the inhibition was 2% (AMPA receptor; radioligand binding, agonist, radioligand displacement; 30 µM).
`CN1CCN(c2cc(-c3ccncc3)c(-c3ccc4ccccc4c3)nn2)CC1` gave an inhibition of 27.7% (Metabotropic glutamate receptor 2 (GRM2, Homo sapiens, UniProt Q14416); antagonist, FLIPR; 10 µM).
Under “log2 fold change”, `Oc1ccc2c3c1O[C@H]1[C@@H](O)CC[C@@]4(O)[C@@H](C2)N(CC2CCC2)CC[C@]314` is recorded as 0.2 (NPBWR2 (Homo sapiens, UniProt P48146); receptor activation, TANGO luminescence; concentration not given, unconfirmed screen; reference: vehicle control).
With `O=C(c1ccc(Cl)cc1)N1CCN2C(=O)N(OC(=O)N3CCOc4ccccc43)C(=O)C2C1` (stereo not drawn) the median ratio was 1.03 (Lysosomal Pro-X carboxypeptidase (PRCP, Homo sapiens, UniProt P42785); enzyme activity, inhibitor, MS-based ABPP; SW-620 in situ; 10 µM, 2 h, 37 °C; reference: compound over DMSO, lower = stronger inhibition).
`C[C@]1(O)CC[C@H]2[C@@H]3CCC4=CC(=O)CCC4=C3C=C[C@@]21C`: “AR binding peaks” 13300 peaks (LNCaP; CUT&RUN; 5 nM, 16 h).
With `COc1ccc(N2C(=O)N(c3c(C)cccc3Cl)Cc3cnc(Nc4ccc(C5CCN(C)CC5)cc4OC)nc32)nc1` the inhibition was 19% (STE20-like serine/threonine-protein kinase (SLK, Homo sapiens, UniProt Q9H2G2); kinase activity; 0.5 µM).
Under “grade 1 or 2 Thrombocytopenia”, `COc1cc2c(Oc3ccc4[nH]c(C)cc4c3F)ccnc2cc1OCC1(N)CC1` is recorded as 18.2% (paediatric recurrent refractory sarcoma; 12 mg).
With `COc1cc(Nc2ncc(F)c(Nc3ccc4c(n3)NC(=O)C(C)(C)O4)n2)cc(OC)c1OC` the IC50 was over 10 µM (Angiotensin-converting enzyme (ACE, Homo sapiens, UniProt P12821)).
With `CO[C@H]1C[C@@H]2CC[C@@H](C)[C@@](O)(O2)C(=O)C(=O)N2CCCC[C@H]2C(=O)O[C@H]([C@H](C)C[C@@H]2CC[C@@H](OC(=O)NCCOCCOCCOCCOCCOCCOCCOCCOCCC(=O)N3CCc4cc(Cn5nc(-c6ccc7oc(N)nc7c6)c6c(N)ncnc65)ccc4C3)[C@H](OC)C2)C[C@@H](O)[C@H](C)/C=C(\C)[C@@H](O)[C@@H](OC)C(=O)[C@H](C)C[C@H](C)/C=C/C=C/C=C/1C` the TRAE incidence was 33.3% (phase 1 dose escalation, measured: vomiting; advanced solid tumour patients; intravenous, 12 mg weekly, any grade).
With `C[C@@H](O)[C@@H](CO)NC(=O)[C@@H](CCCNC(=N)N)NC(=O)[C@@H]1CCCN1C(=O)[C@@H]1CSSC[C@H](NC(=O)[C@H](Cc2ccccc2)NC(=O)CN2CCN(CC(=O)O)CCN(CC(=O)O)CCN(CC(=O)O)CC2)C(=O)N[C@@H](Cc2ccc(O)cc2)C(=O)N[C@@H](Cc2ccccc2)C(=O)N[C@@H](CCC(N)=O)C(=O)N[C@@H](CC(N)=O)C(=O)N1` [gallium-68 labelled] the tissue uptake was 0.07 %ID/g (Wistar rat, spleen; intravenous, 8 MBq, 120 min, group mean).
With `[2H]c1c([2H])c([C@]2([2H])CCCN2C(=O)C(C)(C)Oc2ccc3cn[nH]c3c2)c([2H])c([2H])c1C([2H])([2H])[2H]` the remaining binding was 100% (Serine/threonine-protein kinase OSR1 (OXSR1, Homo sapiens, UniProt O95747); KINOMEscan; 1 µM; reference: DMSO control).
With `CCCc1cc(O)c2c(c1)OC(C)(C)[C@@H]1CCC(C)=C[C@@H]21` the Hill coefficient was 1.03 ± 0.09 (Transient receptor potential cation channel subfamily V member 3 (TRPV3, Homo sapiens, UniProt Q8NET8, L557A); calcium uptake, TRPV3 modulator, Fura-2 AM calcium imaging).
For `CC[C@H](C)[C@H](NC(=O)CNC(=O)[C@@H](N)CCCCN)C(=O)N[C@@H](CC(C)C)C(=O)N[C@@H](CCCCN)C(=O)N[C@@H](CCCNC(=N)N)C(=O)N[C@@H](CCC(=O)O)C(=O)N[C@@H](CCCCN)C(=O)N[C@@H](CCCNC(=N)N)C(=O)N[C@@H](CC(C)C)C(=O)N[C@@H](CCCNC(=N)N)C(=O)N[C@@H](CCCNC(=N)N)C(=O)N[C@@H](CCCCN)C(=O)N[C@@H](CC(N)=O)C(=O)N[C@H](C(=O)N[C@@H](Cc1c[nH]cn1)C(=O)N[C@@H](Cc1c[nH]c2ccccc12)C(=O)N1CCC[C@H]1C(=O)N[C@@H](CCC(=O)O)C(=O)N[C@@H](CCC(=O)O)C(=O)NCC(=O)N[C@@H](CCCCN)C(=O)N[C@@H](CC(C)C)C(=O)N[C@@H](CCCNC(=N)N)C(=O)N[C@@H](CCC(=O)O)C(=O)N[C@@H](Cc1ccccc1)C(=O)N[C@@H](Cc1ccccc1)C(=O)N[C@@H](Cc1ccccc1)C(=O)N[C@@H](Cc1ccccc1)C(=O)N[C@@H](CCC(=O)O)C(=O)N[C@@H](CC(C)C)C(=O)N[C@@H](CC(=O)O)C(=O)N[C@@H](CCC(=O)O)C(=O)N[C@@H](C)C(=O)N[C@@H](CCC(=O)O)C(=O)N[C@@H](CCCNC(=N)N)C(=O)N[C@H](C(=O)N[C@@H](CC(N)=O)C(=O)N[C@H](C(=O)O)C(C)C)C(C)C)C(C)C`, “log2 fold change” read -0.21 (HeLa and HEK-293T cells; phosphatase bead binding, competitive inhibitor, PIB pulldown iBAQ LC-MS/MS, measured: STRN4; concentration not given; reference: untreated control).
With `CC[C@H](C)[C@H](NC(=O)[C@H](Cc1ccccc1)NC(=O)[C@H](CCC(=O)O)NC(=O)[C@H](CCCNC(=N)N)NC(=O)[C@H](C)NC(=O)[C@H](C)NC(=O)[C@H](CCC(N)=O)NC(=O)[C@H](CCC(=O)O)NC(=O)[C@H](CCC(=O)O)NC(=O)[C@H](CC(C)C)NC(=O)[C@H](Cc1ccc(O)cc1)NC(=O)[C@H](CO)NC(=O)[C@H](CO)NC(=O)[C@@H](NC(=O)[C@H](CC(=O)O)NC(=O)[C@H](CO)NC(=O)[C@@H](NC(=O)[C@H](Cc1ccccc1)NC(=O)[C@@H](NC(=O)CNC(=O)[C@H](CCC(=O)O)NC(=O)[C@H](C)NC(=O)CCc1c[nH]cn1)[C@@H](C)O)[C@@H](C)O)C(C)C)C(=O)N[C@@H](C)C(=O)N[C@@H](Cc1c[nH]c2ccccc12)C(=O)N[C@@H](CC(C)C)C(=O)N[C@H](C(=O)N[C@@H](CCCNC(=N)N)C(=O)NCC(=O)N[C@@H](CCCNC(=N)N)C(=O)N[C@@H](CCCCNC(=O)COCCOCCNC(=O)COCCOCCNC(=O)CC[C@H](NC(=O)CCCCCCCCCCCCCCCCC(=O)O)C(=O)O)C(=O)NCC(=O)NCC(=O)N[C@@H](CO)C(=O)N[C@@H](CCCCNc1c(NCCCCCN(O)C(=O)CCC(=O)NCCCCCN(O)C(=O)CCC(=O)NCCCCCN(O)C(C)=O)c(=O)c1=O)C(=O)O)C(C)C` [zirconium-89 labelled] the tissue uptake was 0.09 %ID/g (rat, heart; iv, 3 nmol/kg, 168 h, ex vivo).
The relative abundance of `C[C@H]1CN(c2n[nH]c3nc(N[C@H]4CC[C@H](NS(=O)(=O)CCC(F)(F)F)CC4)ncc23)CCO1` is reported as 1.12 (DNA damage-binding protein 1 (DDB1, Homo sapiens, UniProt Q16531); inhibitor, Kinobeads competition profiling; 0.16 µM; reference: vehicle).

For quick reference, copied from above:
With `C[C@@H](O)[C@@H](CO)NC(=O)[C@@H](CCCNC(=N)N)NC(=O)[C@@H]1CCCN1C(=O)[C@@H]1CSSC[C@H](NC(=O)[C@H](Cc2ccccc2)NC(=O)CN2CCN(CC(=O)O)CCN(CC(=O)O)CCN(CC(=O)O)CC2)C(=O)N[C@@H](Cc2ccc(O)cc2)C(=O)N[C@@H](Cc2ccccc2)C(=O)N[C@@H](CCC(N)=O)C(=O)N[C@@H](CC(N)=O)C(=O)N1` [gallium-68 labelled] the tissue uptake was 0.07 %ID/g (Wistar rat, spleen; intravenous, 8 MBq, 120 min, group mean).
